Measured values collected from several papers.
A part holds a random share of what one study measured. Positions count from the first letter of the parent shown.
Chain of UniProt Q9C8N7 (whole entry, looked up): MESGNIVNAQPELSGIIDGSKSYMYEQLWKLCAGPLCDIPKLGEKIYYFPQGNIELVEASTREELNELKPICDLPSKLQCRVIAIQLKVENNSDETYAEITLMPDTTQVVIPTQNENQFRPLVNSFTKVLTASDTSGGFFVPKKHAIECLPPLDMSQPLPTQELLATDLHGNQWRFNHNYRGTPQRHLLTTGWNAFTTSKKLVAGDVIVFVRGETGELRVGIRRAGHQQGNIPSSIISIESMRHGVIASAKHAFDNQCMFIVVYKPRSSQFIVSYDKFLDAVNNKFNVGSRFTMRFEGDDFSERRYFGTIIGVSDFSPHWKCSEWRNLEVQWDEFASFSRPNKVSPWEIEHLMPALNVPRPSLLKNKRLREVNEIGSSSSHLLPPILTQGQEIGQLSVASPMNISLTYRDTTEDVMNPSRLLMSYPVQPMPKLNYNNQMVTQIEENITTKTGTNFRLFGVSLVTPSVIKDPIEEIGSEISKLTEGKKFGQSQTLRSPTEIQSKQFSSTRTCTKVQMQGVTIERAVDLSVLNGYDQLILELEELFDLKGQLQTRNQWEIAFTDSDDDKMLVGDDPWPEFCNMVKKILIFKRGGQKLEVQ

Set 1 — technique: protein-binding microarray; form: double-stranded DNA, one strand shown; sample: in vitro; concentration: 250 nM; notes: 60-bp whole probe; added: salmon DNA 0.4 mg/ml; baseline: random background probes; reading: higher = stronger binding; all sequences stand within: GCCTAGCAC … GTCTTGATTCGCTTGACGCTGCTG
Target: Interferon regulatory factor 7, full length, phosphomimetic (IRF7, Homo sapiens, UniProt Q92985, residues 1-503, S101K/S471D/S472D/S475D/S476D/S477D/S483D/S484D/S487D)
Construct (chain): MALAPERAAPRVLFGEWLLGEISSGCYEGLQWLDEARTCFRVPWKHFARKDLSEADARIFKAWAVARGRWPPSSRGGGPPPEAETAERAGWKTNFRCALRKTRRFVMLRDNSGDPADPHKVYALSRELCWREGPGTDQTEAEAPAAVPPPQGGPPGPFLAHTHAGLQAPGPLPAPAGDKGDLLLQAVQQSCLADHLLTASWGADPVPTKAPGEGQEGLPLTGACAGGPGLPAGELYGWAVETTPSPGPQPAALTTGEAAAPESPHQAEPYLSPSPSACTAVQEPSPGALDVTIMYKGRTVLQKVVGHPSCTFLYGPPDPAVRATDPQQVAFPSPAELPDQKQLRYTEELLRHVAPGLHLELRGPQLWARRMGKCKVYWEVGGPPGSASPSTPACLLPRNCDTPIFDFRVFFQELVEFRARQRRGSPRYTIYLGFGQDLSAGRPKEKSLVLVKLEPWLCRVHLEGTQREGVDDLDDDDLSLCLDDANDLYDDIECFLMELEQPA
Oligonucleotide	log fluorescence [z-score]
GACGGACTGGACTATCGCGACGTGCTA	-0.827
TCATTTCTAATATTCTGACTGTGCTAG	1.42
TTTTTTTTTTTTTTTTTGTAGTGCTAG	0.626
GACGATTTCAGTATCGAGAGGTGCTAG	0.122
CCCGTTCACCCACGACCCTTGTGCTAG	0.963
GTAGGTTTCGGTATCGGTTAGTGCTAG	10.9
TTAGGACTGGGTTTCCGTTAGTGCTAG	1.83
GCCGATCTCAGTTTCGAGACGTGCTAG	3.62

Set 2 — technique: RNA Bind-n-Seq; form: RNA; sample: in vitro; concentration: 20 nM; notes: 6-mer, flanks averaged, single round; added: 150 mM LiCl; baseline: input library; reading: higher = stronger binding
Target: TAR DNA-binding protein 43, full length, His tag (TARDBP, Homo sapiens, UniProt Q13148, residues 1-414)
Oligonucleotide	6-mer enrichment (R)
CCAUCA	0.879
UUAUUG	1.13
GGGGGU	1.52
CUAUUU	1.11
GCCGGC	0.992
ACGAUC	0.796
AUCUCC	0.918
GCGUUC	0.917

Other studies, line by line
P1: viral docking peptide; PTARRRLLHDLDT; partner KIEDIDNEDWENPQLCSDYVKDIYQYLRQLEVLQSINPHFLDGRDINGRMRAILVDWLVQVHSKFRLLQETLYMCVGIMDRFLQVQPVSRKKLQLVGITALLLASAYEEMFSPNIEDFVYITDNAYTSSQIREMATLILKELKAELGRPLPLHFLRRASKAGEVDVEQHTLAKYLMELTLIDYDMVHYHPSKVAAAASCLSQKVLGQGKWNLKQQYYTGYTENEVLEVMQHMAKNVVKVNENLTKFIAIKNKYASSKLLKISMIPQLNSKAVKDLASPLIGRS
B1: ARF11 500-622 (Arabidopsis thaliana, UniProt Q9ZPY6); chain SPKEQKQQTSTRSRIKVQMQGTAVGRAVDLTLLRSYDELIKELEKMFEIEGELSPKDKWAIVFTDDEGDRMLVGDDPWNEFCKMAKKLFIYPSDEVKKMRSKSLLGDKGTIVNLESDQRTVHV
P2: PafA, mature enzyme, eGFP fusion (Elizabethkingia meningoseptica, UniProt Q9KJX5); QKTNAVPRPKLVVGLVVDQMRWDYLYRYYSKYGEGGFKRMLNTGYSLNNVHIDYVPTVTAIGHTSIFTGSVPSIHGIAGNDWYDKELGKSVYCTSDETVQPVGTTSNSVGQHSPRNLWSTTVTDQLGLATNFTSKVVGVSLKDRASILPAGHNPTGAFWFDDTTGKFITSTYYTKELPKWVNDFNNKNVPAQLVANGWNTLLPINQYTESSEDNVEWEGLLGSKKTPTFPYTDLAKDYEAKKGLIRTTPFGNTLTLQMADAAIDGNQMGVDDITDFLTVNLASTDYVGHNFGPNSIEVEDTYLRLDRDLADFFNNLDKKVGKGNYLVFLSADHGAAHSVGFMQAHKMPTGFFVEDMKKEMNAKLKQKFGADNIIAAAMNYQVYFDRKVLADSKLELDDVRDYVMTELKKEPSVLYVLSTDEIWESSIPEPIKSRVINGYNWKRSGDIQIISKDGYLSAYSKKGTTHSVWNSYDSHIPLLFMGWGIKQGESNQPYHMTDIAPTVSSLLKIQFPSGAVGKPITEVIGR
Substance	tested on	test	test system	conditions	how to read	quantity	value
P1 R6A	CCNB2, cyclin fold, Cln2 fusion (human)	yeast growth competition, sequencing	yeast	weak parent motif	baseline: not given, higher = stronger binding	normalised enrichment score	0.59
B1 (ARF11 500-622)	ARF22 498-598 (Arabidopsis thaliana, UniProt Q9C8N7)	two-hybrid	–	–	baseline: out of 2 tests, higher = firmer interaction	positive tests	0
P2 T57V	vanadate, free oxyanion	microfluidic competitive inhibition	in vitro, cell-free expressed	not given, derived from inhibition constants, unchanged parent 676 nM	lower = stronger binding	oxyanion analog dissociation constant	369 nM

Repeated from above (set 1):
Oligonucleotide	log fluorescence [z-score]
GACGATTTCAGTATCGAGAGGTGCTAG	0.122
